# Experimental data of several laboratories.
# Lines come from different studies, so protocols differ. Non-standard residues stand in square brackets, D forms with d. No end group written: not given here.
# B1: CD226 19-254 (Homo sapiens, UniProt Q15762); sequence looked up; chain EEVLWHTSVPFAENMSLECVYPSMGILTQVEWFKIGTQQDSIAIFSPTHGMVIRKPYAERVYFLNSTMASNNMTLFFRNASEDDVGYYSCSLYTYPQGTWQKVIQVVQSDSFEAAVPSNSHIVSEPGKNVTLTCQPQMTWPVQAVRWEKIQPRQIDLLTYCNLVHGRNFTSKFPRQIVSNCSHGRWSVIVIPDVTVSDSGLYRCYLQASAGENETFVMRLTVAEGKTDNQYTLFVA
# B2: Nup62 331-525 (Rattus norvegicus, UniProt P17955); chain MTYAQLESLINKWSLELEDQERHFLQQATQVNAWDRTLIENGEKITSLHREVEKVKLDQKRLDQELDFILSQQKELEDLLSPLEESVKEQSGTIYLQHADEEREKTYKLAENIDAQLKRMAQDLKDIIEHLNMAGGPADTSDPLQQICKILNAHMDSLQWVDQSSALLQRRVEEASRVCESRRKEQERSLRIAFD
# B3: Il10rb 20-220 N49Q/N102Q/N161Q/N199Q (Mus musculus, UniProt Q61190); sequence looked up; chain MIPPPEKVRMNSVNFKNILQWEVPAFPKTQLTFTAQYESYRSFQDHCKRTASTQCDFSHLSKYGDYTVRVRAELADEHSEWVQVTFCPVEDTIIGPPEMQIESLAESLHLRFSAPQIENEPETWTLKNIYDSWAYRVQYWKQGTNEKFQVVSPYDSEVLRNLEPWTTYCIQVQGFLLDQQRTGEWSEPICERTGNDEITPS
# B4: rI 25-97 (T4 phage, UniProt P13304); Cys69-Cys75 disulfide; sequence looked up; chain NVDPHFDKFMESGIRHVYMLFENKSVESSEQFYSFMRTTYKNDPCSSDFECIERGAEMAQSYARIMNIKLETE
# B5: CSM1 (Saccharomyces cerevisiae, UniProt P25651); sequence looked up; chain MDPLTVYKNSVKQQIDSADLLVANLVNENFVLSEKLDTKATEIKQLQKQIDSLNAQVKELKTQTSQQAENSEVIKDLYEYLCNVRVHKSYEDDSGLWFDISQGTHSGGSSDDYSIMDYKLGFVKGQAQVTEVIYAPVLKQRSTEELYSLQSKLPEYLFETLSFPLSSLNQFYNKIAKSLNKKREKKDETE
# B6: NEDD4L 492-581 (Homo sapiens, UniProt Q96PU5); chain HKVTQSFLPPGWEMRIAPNGRPFFIDHNTKTTTWEDPRLKFPVHMRSKTSLNPNDLGPLPPGWEERIHLDGRTFYIDHNSKITQWEDPRL
# B7: CITED2/HIF1A 216-246/796-826 (Homo sapiens); chain GSHMSNVIDTDFIDEEVLMSLVIEMGLDRIKELPELTSYDCEVNAPIQGSRNLLQGEELLRALDQVN
# B8: PUM1 589-827 (Homo sapiens, UniProt Q14671); sequence looked up; chain ISSSAAQAAVAAAAASANGAAGGLAGTTNGPFRPLGTQQPQPQPQQQPNNNLASSSFYGNNSLNSNSQSSSLFSQGSAQPANTSLGFGSSSSLGATLGSALGGFGTAVANSNTGSGSRRDSLTGSSDLYKRTSSSLTPIGHSFYNGLSFSSSPGPVGMPLPSQGPGHSQTPPPSLSSHGSSSSLNLGGLTNGSGRYISAAPGAEAKYRSASSASSLFSPSSTLFSSSRLRYGMSDVMPS
# B9: UGT1A9 (Homo sapiens, UniProt O60656); chain GKLLVVPMDGSHWFTMRSVVEKLILRGHEVVVVMPEVSWQLGRSLNCTVKTYSTSYTLEDLDREFKAFAHAQWKAQVRSIYSLLMGSYNDIFDLFFSNCRSLFKDKKLVEYLKESSFDAVFLDPFDNCGLIVAKYFSLPSVVFARGILCHYLEEGAQCPAPLSYVPRILLGFSDAMTFKERVRNHIMHLEEHLLCHRFFKNALEIASEILQTPVTEYDLYSHTSIWLLRTDFVLDYPKPVMPNMIFIGGINCHQGKPLPMEFEAYINASGEHGIVVFSLGSMVSEIPEKKAMAIADALGKIPQTVLWRYTGTRPSNLANNTILVKWLPQNDLLGHPMTRAFITHAGSHGVYESICNGVPMVMMPLFGDQMDNAKRMETKGAGVTLNVLEMTSEDLENALKAVINDKSYKENIMRLSSLHKDRPVEPLDLAVFWVEFVMRHKGAPHLRPAAHDLTWYQYHSLDVIGFLLAVVLTVAFITFKCCAYGYRKCLGKKGRVKKAHKSKTH
# B10: TIF4631 572-853 K590R (Saccharomyces cerevisiae, UniProt P39935); sequence looked up; chain LVPSANRWVPKFKSKKTERKLAPDGKTELLDKDEVERKMKSLLNKLTLEMFDAISSEILAIANISVWETNGETLKAVIEQIFLKACDEPHWSSMYAQLCGKVVKELNPDITDETNEGKTGPKLVLHYLVARCHAEFDKGWTDKLPTNEDGTPLEPEMMSEEYYAAASAKRRGLGLVRFIGFLYRLNLLTGKMMFECFRRLMKDLTDSPSEETLESVVELLNTVGEQFETDSFRTGQATLEGSQLLDSLFGILDNIIQTAKISSRIKFKLIDIKELRHDKNWN
# B11: RNase B unfolded, reduced (UniProt P61823); N-glycan, DyLight 680 label; sequence looked up; chain KETAAAKFERQHMDSSTSAASSSNYCNQMMKSRNLTKDRCKPVNTFVHESLADVQAVCSQKNVACKNGQTNCYQSYSTMSITDCRETGSSKYPNCAYKTTQANKHIIVACEGNPYVPVHFDASV
# B12: tost-1 (Caenorhabditis elegans, UniProt Q18490); sequence looked up; chain MTTAIQYQVIPLADREHSNKVASILENKYKTATNKRITLNERFGVLEKGYTIQATEPETVKNDSDVFFVVHDRNLNSKKEFVENYLAKNPIVNSPEKVFEEEDKENAPTKKAVLKPSSTDEKKLTSSDIYIQEITRSILQSV
# B13: SPT15 (Saccharomyces cerevisiae, UniProt P13393); fluorescein label; sequence looked up; chain MADEERLKEFKEANKIVFDPNTRQVWENQNRDGTKPATTFQSEEDIKRAAPESEKDTSATSGIVPTLQNIVATVTLGCRLDLKTVALHARNAEYNPKRFAAVIMRIREPKTTALIFASGKMVVTGAKSEDDSKLASRKYARIIQKIGFAAKFTDFKIQNIVGSCDVKFPIRLEGLAFSHGTFSSYEPELFPGLIYRMVKPKIVLLIFVSGKIVLTGAKQREEIYQAFEAIYPVLSEFRKM
# Sequence of UniProt P45481 (whole entry, looked up): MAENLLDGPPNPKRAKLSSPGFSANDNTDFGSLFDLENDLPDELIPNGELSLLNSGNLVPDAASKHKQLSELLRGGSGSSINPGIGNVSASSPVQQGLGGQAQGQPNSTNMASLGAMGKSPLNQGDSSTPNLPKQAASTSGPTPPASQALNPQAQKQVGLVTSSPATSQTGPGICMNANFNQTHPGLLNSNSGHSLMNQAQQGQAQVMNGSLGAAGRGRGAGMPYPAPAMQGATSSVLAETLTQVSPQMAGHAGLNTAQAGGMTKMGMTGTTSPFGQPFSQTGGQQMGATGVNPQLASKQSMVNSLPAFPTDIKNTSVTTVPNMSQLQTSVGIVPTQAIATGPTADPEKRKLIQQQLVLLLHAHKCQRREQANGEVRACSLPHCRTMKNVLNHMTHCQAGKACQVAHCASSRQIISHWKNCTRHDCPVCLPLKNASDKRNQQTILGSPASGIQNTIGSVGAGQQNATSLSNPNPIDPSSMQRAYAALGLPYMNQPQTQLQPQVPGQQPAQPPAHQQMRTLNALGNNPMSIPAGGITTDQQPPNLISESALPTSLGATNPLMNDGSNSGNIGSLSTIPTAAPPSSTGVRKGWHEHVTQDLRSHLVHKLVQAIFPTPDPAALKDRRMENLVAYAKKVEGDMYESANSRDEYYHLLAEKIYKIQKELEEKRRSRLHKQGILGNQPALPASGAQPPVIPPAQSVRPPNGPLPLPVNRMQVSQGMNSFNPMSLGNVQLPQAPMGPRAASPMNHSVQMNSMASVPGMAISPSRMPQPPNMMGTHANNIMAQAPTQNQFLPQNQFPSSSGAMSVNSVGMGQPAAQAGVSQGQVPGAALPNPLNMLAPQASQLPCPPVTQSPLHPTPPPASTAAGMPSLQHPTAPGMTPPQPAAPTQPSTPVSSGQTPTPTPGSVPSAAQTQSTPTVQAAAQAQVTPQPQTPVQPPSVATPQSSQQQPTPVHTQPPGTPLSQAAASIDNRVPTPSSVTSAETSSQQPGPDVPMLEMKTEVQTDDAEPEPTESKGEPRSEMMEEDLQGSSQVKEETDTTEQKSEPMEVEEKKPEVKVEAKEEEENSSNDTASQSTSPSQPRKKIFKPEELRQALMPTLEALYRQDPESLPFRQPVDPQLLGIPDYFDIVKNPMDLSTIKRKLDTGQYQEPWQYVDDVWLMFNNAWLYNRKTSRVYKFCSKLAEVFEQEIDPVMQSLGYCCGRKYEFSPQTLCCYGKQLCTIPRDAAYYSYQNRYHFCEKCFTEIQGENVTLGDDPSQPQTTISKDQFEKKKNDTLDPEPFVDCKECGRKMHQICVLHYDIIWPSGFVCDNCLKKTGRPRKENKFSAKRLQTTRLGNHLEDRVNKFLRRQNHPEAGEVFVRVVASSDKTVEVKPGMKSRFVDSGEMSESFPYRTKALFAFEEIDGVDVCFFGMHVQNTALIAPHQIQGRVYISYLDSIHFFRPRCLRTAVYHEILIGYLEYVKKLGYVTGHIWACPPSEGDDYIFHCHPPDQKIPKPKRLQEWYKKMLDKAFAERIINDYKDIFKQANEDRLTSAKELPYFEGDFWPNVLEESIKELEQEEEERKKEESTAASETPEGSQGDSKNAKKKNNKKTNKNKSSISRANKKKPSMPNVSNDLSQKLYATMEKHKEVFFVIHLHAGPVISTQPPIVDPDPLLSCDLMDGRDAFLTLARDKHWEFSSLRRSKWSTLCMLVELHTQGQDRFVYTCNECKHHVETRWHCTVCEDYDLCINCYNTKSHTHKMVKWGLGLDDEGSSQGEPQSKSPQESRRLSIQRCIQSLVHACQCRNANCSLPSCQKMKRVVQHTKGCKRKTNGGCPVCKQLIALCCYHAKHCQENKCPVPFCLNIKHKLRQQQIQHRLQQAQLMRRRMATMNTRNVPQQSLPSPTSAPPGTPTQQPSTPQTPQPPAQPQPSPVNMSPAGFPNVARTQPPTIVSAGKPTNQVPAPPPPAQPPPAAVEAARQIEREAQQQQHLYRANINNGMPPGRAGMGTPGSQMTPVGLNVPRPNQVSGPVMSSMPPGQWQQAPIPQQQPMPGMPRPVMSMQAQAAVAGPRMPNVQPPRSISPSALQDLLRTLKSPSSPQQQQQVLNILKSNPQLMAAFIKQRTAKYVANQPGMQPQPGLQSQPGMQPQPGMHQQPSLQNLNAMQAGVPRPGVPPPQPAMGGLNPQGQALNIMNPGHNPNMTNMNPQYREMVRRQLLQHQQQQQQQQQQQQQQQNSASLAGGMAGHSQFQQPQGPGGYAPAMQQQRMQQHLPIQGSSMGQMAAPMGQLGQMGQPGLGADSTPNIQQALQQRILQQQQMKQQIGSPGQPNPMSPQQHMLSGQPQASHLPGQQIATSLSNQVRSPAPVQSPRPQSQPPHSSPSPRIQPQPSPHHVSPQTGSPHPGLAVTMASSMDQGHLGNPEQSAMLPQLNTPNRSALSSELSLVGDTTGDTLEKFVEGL
# Sequence of UniProt Q92692 (whole entry, looked up): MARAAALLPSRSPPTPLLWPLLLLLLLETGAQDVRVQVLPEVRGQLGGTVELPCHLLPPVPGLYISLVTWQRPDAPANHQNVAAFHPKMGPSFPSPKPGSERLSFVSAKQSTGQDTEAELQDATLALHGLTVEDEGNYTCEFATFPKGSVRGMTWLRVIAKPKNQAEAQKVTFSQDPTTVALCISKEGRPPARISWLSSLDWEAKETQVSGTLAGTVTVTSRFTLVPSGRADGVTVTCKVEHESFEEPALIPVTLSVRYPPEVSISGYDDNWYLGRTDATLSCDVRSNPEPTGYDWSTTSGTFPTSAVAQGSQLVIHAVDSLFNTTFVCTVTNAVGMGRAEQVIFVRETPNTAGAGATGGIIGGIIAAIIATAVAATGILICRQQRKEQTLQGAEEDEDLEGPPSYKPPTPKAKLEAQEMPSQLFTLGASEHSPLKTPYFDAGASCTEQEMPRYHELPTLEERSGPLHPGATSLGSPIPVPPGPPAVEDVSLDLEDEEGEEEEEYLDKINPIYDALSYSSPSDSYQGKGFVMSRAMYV
# Sequence of UniProt P48735 (whole entry, unmodified, looked up): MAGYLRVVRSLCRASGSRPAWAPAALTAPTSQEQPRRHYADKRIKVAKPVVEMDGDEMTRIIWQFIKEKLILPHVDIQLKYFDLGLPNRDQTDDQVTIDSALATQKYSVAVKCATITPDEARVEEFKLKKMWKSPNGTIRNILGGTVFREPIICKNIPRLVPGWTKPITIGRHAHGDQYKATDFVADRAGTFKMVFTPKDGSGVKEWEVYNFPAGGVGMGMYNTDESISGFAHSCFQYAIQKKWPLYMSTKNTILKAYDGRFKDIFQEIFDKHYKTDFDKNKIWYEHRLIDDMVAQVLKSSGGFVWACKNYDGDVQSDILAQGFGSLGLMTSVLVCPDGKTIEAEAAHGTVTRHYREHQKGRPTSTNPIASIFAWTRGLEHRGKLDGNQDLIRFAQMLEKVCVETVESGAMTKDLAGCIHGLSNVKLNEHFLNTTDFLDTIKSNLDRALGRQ
# Sequence of UniProt P06400 (whole entry, looked up): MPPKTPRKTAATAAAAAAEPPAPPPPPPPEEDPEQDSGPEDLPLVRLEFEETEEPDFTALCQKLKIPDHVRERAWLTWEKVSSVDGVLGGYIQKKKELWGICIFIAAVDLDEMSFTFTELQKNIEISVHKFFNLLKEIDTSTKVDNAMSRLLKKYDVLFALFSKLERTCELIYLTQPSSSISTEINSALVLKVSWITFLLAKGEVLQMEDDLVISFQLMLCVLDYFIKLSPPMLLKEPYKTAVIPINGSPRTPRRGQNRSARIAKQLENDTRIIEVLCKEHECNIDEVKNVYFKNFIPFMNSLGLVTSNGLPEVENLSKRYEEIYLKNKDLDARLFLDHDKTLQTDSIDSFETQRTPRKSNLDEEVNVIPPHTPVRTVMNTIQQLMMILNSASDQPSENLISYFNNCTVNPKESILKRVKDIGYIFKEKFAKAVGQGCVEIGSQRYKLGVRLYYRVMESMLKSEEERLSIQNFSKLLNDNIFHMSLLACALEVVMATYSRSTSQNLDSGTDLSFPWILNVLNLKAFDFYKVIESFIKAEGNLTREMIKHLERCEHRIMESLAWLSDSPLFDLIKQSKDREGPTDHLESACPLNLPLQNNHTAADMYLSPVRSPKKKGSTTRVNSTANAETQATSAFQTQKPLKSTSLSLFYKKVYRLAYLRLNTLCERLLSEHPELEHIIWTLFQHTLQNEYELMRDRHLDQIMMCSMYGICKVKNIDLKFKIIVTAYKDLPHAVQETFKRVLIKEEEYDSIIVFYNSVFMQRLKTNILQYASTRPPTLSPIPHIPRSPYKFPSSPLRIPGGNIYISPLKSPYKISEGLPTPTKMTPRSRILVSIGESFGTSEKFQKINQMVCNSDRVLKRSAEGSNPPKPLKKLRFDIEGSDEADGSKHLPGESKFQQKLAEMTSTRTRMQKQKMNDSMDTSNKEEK
# Sequence of UniProt Q80XZ4 (whole entry, unmodified, looked up): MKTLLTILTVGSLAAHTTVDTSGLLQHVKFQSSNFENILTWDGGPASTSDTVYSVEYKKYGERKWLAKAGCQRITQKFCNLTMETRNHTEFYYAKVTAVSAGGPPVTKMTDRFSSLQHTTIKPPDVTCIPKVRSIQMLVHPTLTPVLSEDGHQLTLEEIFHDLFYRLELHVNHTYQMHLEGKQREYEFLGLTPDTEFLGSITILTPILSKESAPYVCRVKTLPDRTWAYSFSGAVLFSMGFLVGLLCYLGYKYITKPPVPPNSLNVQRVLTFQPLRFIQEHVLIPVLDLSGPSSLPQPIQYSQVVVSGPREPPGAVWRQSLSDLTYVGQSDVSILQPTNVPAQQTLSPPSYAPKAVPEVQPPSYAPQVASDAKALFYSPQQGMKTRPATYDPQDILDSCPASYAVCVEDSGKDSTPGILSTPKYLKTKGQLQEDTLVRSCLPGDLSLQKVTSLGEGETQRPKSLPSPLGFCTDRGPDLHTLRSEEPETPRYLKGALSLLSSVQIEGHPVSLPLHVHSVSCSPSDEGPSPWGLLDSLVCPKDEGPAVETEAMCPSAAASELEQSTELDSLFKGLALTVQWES
Molecule,target or system,test,system,setting,quantity,value
B1 (CD226 19-254),"NECTIN2 Fc fusion ectodomain 32-360 (Homo sapiens, UniProt Q92692)",ELISA,Fc fusion,"2 h, 37 °C, without Ca2+",binding,binds
MPIFLDHALNKFWILHYAGSGSSG (SPAM peptide I8A; peptide-RNA fusion),CD274 ectodomain (Homo sapiens),radioligand binding,peptide,"1 h, 4 °C",binding,binds
B2 (Nup62 331-525),"Nup54 (Rattus norvegicus, UniProt P70582)",far-Western blot,partially purified complex,,binding,binds
B3,"Il22ra1 16-228 N80D/N87D/T89Q (Mus musculus, UniProt Q80XZ4)",crystal structure,,,binding,binds
B4 (rI 25-97),"holin T periplasmic domain 56-218, Cys175-Cys207 disulfide (UniProt P06808)",crystal structure,,,binding,binds
B5 (CSM1),MTW1/NSL1/NNF1/DSN1 MIND complex (Saccharomyces cerevisiae),pull-down,,,binding,binds
B6 (NEDD4L 492-581),SCN9A/CALM1 SCN9A ; CALM1 (Homo sapiens),SEC,,,binding,binds
"{VPS26(1–321)}-TAQPELYLLNT[SeMet] (SLC11A2 549-560 (Homo sapiens, UniProt P49281); SeMet = C[Se]CC[C@H](N)C(=O)O; sequence looked up)",VPS26A fragment (Homo sapiens),crystal structure,peptide,,binding,binds
B7 (CITED2/HIF1A 216-246/796-826),"Crebbp 340-439 (Mus musculus, UniProt P45481)",crystal structure,peptide,NaCl 50 mM,binding,binds
"Ac-EIRCDEKPEDL-NH2 (PRDM2 residues 309-319 (Homo sapiens); N-acetyl, C-terminal amide)","RB1 372-581 linked 636-787 (Homo sapiens, UniProt P06400)",NMR titration,peptide,,binding,binds
SLINKSKSSMF (CD36 residues 160-170 (Homo sapiens)),"ALB, CEP-modified (Homo sapiens, UniProt P02768)","competition with ligand, SPR",peptide,,binding,binds
"ACAT1 (Homo sapiens, UniProt P24752)","IDH2 R140Q, pY107 (Homo sapiens, UniProt P48735)",co-IP,,,binding,binds
"NYVFFPSLKPSSSIDEYFSEQPLKNLLLSTSEEQIEKCFIIENISTIA (IFNAR1 465-512 (Homo sapiens, UniProt P17181))","TYK2 23-566 (Homo sapiens, UniProt P29597)",SEC,peptide,,binding,binds
B8 (PUM1 589-827),CNOT1/CNOT2/CNOT3 NOT module 1833-2361 (Homo sapiens),pull-down,,,binding,binds
B9 (UGT1A9),CC(=O)c1ccc(O)cc1,steady-state kinetics,,"pH 7.4, 37 °C",Vmax/Km,14 µL/min/mg
B10 (TIF4631 572-853 K590R),"TIF1 S87C/G370C, Alexa488/Alexa546 labels (Saccharomyces cerevisiae, UniProt P10081)","conformation of molecule, smFRET",,,binding,binds
"B11 (RNase B unfolded, reduced)",MNL1/PDI1 C579S/C644S (Saccharomyces cerevisiae),pull-down,,"30 min, 30 °C",binding,binds
B12 (tost-1),IFE-3/TOFU-6/PID-3/ERH-2 (Caenorhabditis elegans),pull-down,,,binding,binds
MPIFLDHIANKFWILHYAGSGSSG (SPAM peptide L9A; peptide-RNA fusion),CD274 ectodomain (Homo sapiens),radioligand binding,peptide,"1 h, 4 °C",binding,binds
B13 (SPT15),"SAGA complex (Saccharomyces cerevisiae, UniProt P38811)",native gel or EMSA,,,binding,binds

# Some of these lines once more:
Molecule,target or system,test,system,setting,quantity,value
"NYVFFPSLKPSSSIDEYFSEQPLKNLLLSTSEEQIEKCFIIENISTIA (IFNAR1 465-512 (Homo sapiens, UniProt P17181))","TYK2 23-566 (Homo sapiens, UniProt P29597)",SEC,peptide,,binding,binds
B8 (PUM1 589-827),CNOT1/CNOT2/CNOT3 NOT module 1833-2361 (Homo sapiens),pull-down,,,binding,binds
B9 (UGT1A9),CC(=O)c1ccc(O)cc1,steady-state kinetics,,"pH 7.4, 37 °C",Vmax/Km,14 µL/min/mg
